Measured values collected from several papers.
Compare with care: the assays were run in different laboratories. ± gives the spread as reported.

With `CN(C)C(CNC(=O)Nc1cc(C(F)(F)F)ccc1N1CCOCC1)c1ccncc1` (stereo not drawn) the amylase was 559 U/L (mouse, serum; intraperitoneal, 120 mg/kg single dose).
With `CC(C)[C@@H]1NC(=O)[C@H](Cc2ccccc2)NC(=O)[C@H](Cc2ccc(O)cc2)NC(=O)CCSSC[C@@H](C(=O)N2CCC[C@H]2C(=O)N[C@H](CCCNC(=N)N)C(=O)NCC(N)=O)NC(=O)[C@H](CCC(N)=O)NC1=O` the glucose was 230 ± 12.1 mg/dL (Wistar rat, blood; intravenous, 100 µg/kg single dose, 72 h).
With `C[C@@H]1CC[C@H]2[C@@H](C)CO[C@@H]3O[C@@]4(C)CC[C@@H]1[C@]32OO4` the bioavailability was 26.1% (male Sprague-Dawley rat, plasma; oral, 100 mg/kg).
For `CC[C@H](C)C(=O)N1CCC(NC(=O)Nc2ccc(OC(F)(F)F)c(F)c2)CC1`, the Vd/F was 153 L (human, plasma; oral, 24 mg, single dose, healthy volunteers).
The tissue uptake of `C=Cc1cc(O)cc2nc(-c3ccc(O)c([76Br])c3)oc12` is reported as 0.4 ± 0.16 %ID/g (female C57BL/6 mouse, liver; 1 h, high dose).
The permeability (Pe) of `COc1ccc([C@@H]2N=NC(NCCc3c[nH]c4ccc(C)cc34)=NC2=O)cc1` is reported as 4.69 ± 0.2 ×10⁻⁶ cm/s (porcine brain lipid; 100 µg/mL, 18 h, pH 7.4).
For `CC=C(C)C(=O)OC1C2C3(C)CCC(OC4CC(OC)C(OC5OC(C)C(O)C(OC)C5O)C(C)O4)CC3CCC23OC32CCC(C(C)=O)C2(C)C1OC(C)=O` (stereo not drawn), the Papp B→A was 9.12 ×10⁻⁶ cm/s (Caco-2; 10 µM).
For `CSCC[C@H](NC(=O)[C@H](Cc1ccc(O)cc1)NC(=O)[C@@H](CC(=O)O)NC(=O)CN1CCN(CC(=O)O)CCN(CC(=O)O)CCN(CC(=O)O)CC1)C(=O)NCC(=O)N[C@@H](Cc1c[nH]c2ccccc12)C(=O)N[C@@H](CCSC)C(=O)N[C@@H](CC(=O)O)C(=O)N[C@@H](Cc1ccccc1)C(N)=O`, the tumour-to-kidney ratio was 0.06 (MF1 nude mouse, male, HT29-CCK2R xenograft; intravenous, 0.2 µg, 4 h, 111In-labelled; relative to: tumour over kidney).
For `CC[C@H](C)[C@@H]1NC(=O)[C@H](C(C)C)NC(=O)[C@H](C(C)C)NC(=O)[C@H](CC(C)C)NC(=O)C[C@@H](C(=O)N[C@@H](Cc2c[nH]c3ccccc23)C(=O)N[C@@H](CC(N)=O)C(=O)N[C@@H](C)C(=O)N2CCC[C@H]2C(=O)NCC(=O)N[C@@H](Cc2ccccc2)C(=O)N[C@@H](Cc2ccccc2)C(=O)O)NC(=O)[C@H](C)NC(=O)[C@H](CCC(N)=O)NC(=O)[C@H](C(C)C)NC1=O`, thermal stability read “stable” (HPLC; 3 h, 95 °C).
With `CCCCCCCC/C=C\CCCCCCCCOP(O)(O)=S.N` the CL/F was 10.5 mL/min/kg (mouse, female, irradiated; subcutaneous, single dose 24 h after irradiation, with: 15.6 Gy partial-body irradiation).
`CC(C)[C@H](NC(=O)CNC(=O)[C@H](CCC(N)=O)NC(=O)[C@H](C)N)C(=O)O`: “subjects with moderate adverse events” 0% (human; 1 mg/kg single dose).
With `COc1cc2ccnc(Cc3ccc(O[11CH3])c(OC)c3)c2cc1OC` the brain uptake was 0.039 %ID/g (Sprague-Dawley rat, cortex; i.v., 30 min).
`CSCC[C@H](NC(=O)CNC(=O)[C@H](CC(=O)O)NC(=O)[C@@H](NC(=O)[C@@H](NC(=O)[C@@H](NC(=O)CNC(=O)[C@H](CCC(N)=O)NC(=O)[C@H](CCSC)NC(=O)[C@H](CC(=O)O)NC(=O)[C@H](C)NC(=O)[C@H](C)NC(=O)[C@@H](NC(=O)[C@H](CO)NC(=O)[C@@H](N)CC(C)C)[C@@H](C)O)C(C)C)C(C)C)[C@@H](C)O)C(=O)N[C@@H](C)C(=O)N[C@@H](CO)C(=O)NCC(=O)N[C@@H](CC(C)C)C(=O)N[C@@H](CC(=O)O)C(=O)N[C@@H](CCCCN)C(=O)N[C@@H](CC(=O)O)C(=O)N[C@@H](Cc1ccc(O)cc1)C(=O)N[C@@H](CC(C)C)C(=O)N[C@@H](CCCCN)C(=O)N1CCC[C@H]1C(=O)N[C@@H](CC(=O)O)C(=O)N[C@@H](CC(=O)O)C(=O)O` has a distribution half-life of 36 s (human patients, serum; intravenous infusion, 5 mg/kg).
With `CCCCCCCC(=O)OC[C@H](NC(=O)[C@H](CO)NC(=O)CN)C(=O)N[C@@H](Cc1ccccc1)C(=O)N[C@@H](CC(C)C)C(=O)N[C@@H](CO)C(=O)N1CCC[C@H]1C(=O)N[C@@H](CCC(=O)O)C(=O)N[C@@H](Cc1cnc[nH]1)C(=O)N[C@@H](CCC(N)=O)C(=O)N[C@@H](CCCNC(=N)N)C(=O)N[C@H](C(=O)N[C@@H](CCC(N)=O)C(=O)N[C@@H](CCC(N)=O)C(=O)N[C@@H](CCCNC(=N)N)C(=O)N[C@@H](CCCCN)C(=O)N[C@@H](CCC(=O)O)C(=O)N[C@@H](CO)C(=O)N[C@@H](CCCCN)C(=O)N[C@@H](CCCCN)C(=O)N1CCC[C@H]1C(=O)N1CCC[C@H]1C(=O)N[C@@H](C)C(=O)N[C@@H](CCCCN)C(=O)N[C@@H](CC(C)C)C(=O)N[C@@H](CCC(N)=O)C(=O)N1CCC[C@H]1C(=O)N[C@@H](CCCNC(=N)N)C(=O)O)C(C)C` the AUC(0-last) was 4.46 ± 3.01 ng·h/mL (ELISA; healthy humans, both sexes, plasma; intravenous infusion, 1 µg/kg/h, 210 min).
`CC[C@H](C)[C@H](NC(=O)[C@H](CCCCN)NC(=O)[C@H](Cc1ccccc1)NC(=O)[C@H]1CCC[C@@H]1NC(=O)[C@@H](N)CCCCN)C(=O)N[C@@H](C)CC(=O)N[C@@H](CCCCN)C(=O)N[C@@H](CCCCN)C(=O)N[C@H]1CCC[C@@H]1C(=O)N[C@H](C(=O)N[C@@H](CCCCN)C(=O)N[C@@H](CCCNC(=N)N)C(=O)N[C@H](CC(N)=O)Cc1ccccc1)C(C)C` has a helical rigidity of 27 ± 6% (circular dichroism; trifluoroethanol in water; relative to: 15% TFE over 100% TFE).
`CC[C@H](C)[C@H](NC(=O)[C@H](CCCCN)NC(=O)CNC(=O)[C@H](CC(C)C)NC(=O)[C@@H](NC(=O)[C@H](C)NC(=O)[C@H](CCCCN)NC(=O)CNC(=O)[C@H](C)NC(=O)CNC(=O)[C@H](CCCCN)NC(=O)[C@H](CCSC)NC(=O)[C@H](CCCCN)NC(=O)[C@@H](NC(=O)[C@H](Cc1c[nH]c2ccccc12)NC(=O)[C@H](CC(C)C)NC(=O)[C@H](CCC(N)=O)NC(=O)[C@H](CCCCN)NC(=O)[C@H](CC(C)C)NC(=O)[C@@H](N)CC(C)C)[C@@H](C)O)C(C)C)C(=O)N[C@@H](CCCCN)C(=O)NCC(=O)N[C@@H](CC(C)C)C(=O)N[C@@H](CC(C)C)C(=O)O` gave a Stern-Volmer constant of 1.23 ± 0.01 M⁻¹ (acrylamide quenching; DOPC:DOPG 3:1 vesicles; 2 µM, 250 µM total lipid, with: acrylamide).
`COC(=O)C[C@](O)(CCCC(C)(C)OC(C)=O)C(=O)O[C@@H]1C(OC)=C[C@]23CCCN2CCc2cc4c(cc2[C@H]13)OCO4` has a tissue concentration of 98.6 ng/mL (CD1 mouse, heart; subcutaneous, 1 mg/kg, 2 h).
With `COc1cc(C(=O)NCCOCCOCCOCCNC(=O)c2ccc([18F])nc2)ccc1NC(=O)C1NC(CC(C)(C)C)C(C#N)(c2ccc(Cl)cc2F)C1c1cccc(Cl)c1F` (stereo not drawn) the tumour-to-tissue ratio was 1.09 ± 0.42 (athymic male mice, HepG2 xenograft; 2 h; relative to: tumour over liver).
`CN[C@](C)(C[18F])C(=O)O` has a tissue uptake of 3.4 ± 1.3 %ID/g (SCID mouse U87 xenograft, heart; 30 min, post injection).
Under “singlet oxygen quantum yield”, `COCCOCCOCCOc1ccc(/C=C/C2=[N+]3C(=C(c4cc(OC)cc(OC)c4)c4c(C)c(I)c(/C=C/c5ccc(OCCOCCOCCOC)cc5)n4[B-]3(F)F)C(C)=C2I)cc1` is recorded as 0.65 (DPBF absorbance decrease; DMSO; relative to: methylene blue).
For `O=C(O)CCC(NP(=O)(O)OCCC[C@@H](NC(=O)CCC(NC(=O)c1ccc([18F])cc1)C(=O)O)C(=O)O)C(=O)O` (stereo partly drawn), the tumour uptake was 1.57% (radioactivity; mouse, CWR22Rv1 xenograft, tumour; 2 h).

Some of these lines once more:
`COC(=O)C[C@](O)(CCCC(C)(C)OC(C)=O)C(=O)O[C@@H]1C(OC)=C[C@]23CCCN2CCc2cc4c(cc2[C@H]13)OCO4` has a tissue concentration of 98.6 ng/mL (CD1 mouse, heart; subcutaneous, 1 mg/kg, 2 h).
With `COc1cc(C(=O)NCCOCCOCCOCCNC(=O)c2ccc([18F])nc2)ccc1NC(=O)C1NC(CC(C)(C)C)C(C#N)(c2ccc(Cl)cc2F)C1c1cccc(Cl)c1F` (stereo not drawn) the tumour-to-tissue ratio was 1.09 ± 0.42 (athymic male mice, HepG2 xenograft; 2 h; relative to: tumour over liver).
